# Assay results collected from several papers.
# Numbers after ± are the reported error.
# ABCB1: ATP-dependent translocase ABCB1 (ABCB1, Homo sapiens, UniProt P08183)
Compound,target,assay,system,setting,scale,endpoint,result
O=C(c1ccccc1)N1CCN(c2cc(-c3ccccc3)nc3cc(-c4cccc(F)c4)nn23)CC1,ABCB1,"JC-1 efflux, inhibitor",Jurkat-DNR,,,IC50,4.34 ± 2.09 µM
COC(=O)c1ccccc1-c1c2ccc(=N)cc-2oc2cc(N)ccc12,"ATP-dependent translocase ABCB1 (ABCB1, Homo sapiens, UniProt P08183, Y953F)","zero-trans efflux, substrate",HEK293 transfected with P-gp Y953F,"0.53 µM, pH 7.4, normalised to surface expression",,efflux rate constant,54 ± 12%
CC(C)[C@H](NC(=O)OC(C)(C)C)c1nc(C(=O)N[C@H](c2nc(C(=O)N[C@H](c3nc(C(=O)O)cs3)C(C)C)cs2)C(C)C)cs1,ABCB1,"efflux transport, inhibitor, flow cytometry","HeLa, transduced with BacMam P-gp","10 µM, 10 min, 5% FBS, together with: calcein-AM 0.5 µM",relative to: tariquidar 1 µM,inhibition,< 5%
CC(C)(C)c1nc(-c2cccc(NS(=O)(=O)c3c(F)cccc3F)c2F)c(-c2ccnc(N)n2)s1,ABCB1,transport,MDCK-MDR1,"10 µM, 90 min",relative to: B-A over A-B,efflux ratio,17.9
CCOC(=O)c1csc([C@@H](NC(=O)c2csc([C@@H](NC(=O)c3csc([C@@H](N)C(C)C)n3)C(C)C)n2)C(C)C)n1,ABCB1,"calcein-AM efflux, flow cytometry",HeLa transduced with BacMam ABCB1,"10 µM, 10 min, 5% FBS, together with: calcein-AM 0.5 µM",relative to: 1 µM tariquidar,inhibition,55%
COc1ccc(-c2cc3nc(-c4ccco4)cc(N4CCN(C(=O)c5ccoc5)CC4)n3n2)cc1,ABCB1,"JC-1 efflux, inhibitor",Jurkat-DNR,,,IC50,3.45 µM
CC(C)[C@H](NC(=O)OC(C)(C)C)c1nc(C(=O)N[C@H](c2nc(C(=O)O)cs2)C(C)C)cs1,ABCB1,"Bodipy-FL-prazosin efflux, flow cytometry",HeLa transduced with BacMam ABCB1,"20 µM, 45 min, 5% FBS",relative to: 1 µM tariquidar,inhibition,12%
COc1cccc(-c2cc3nc(-c4ccccc4)cc(N4CCN(C(=O)c5ccco5)CC4)n3n2)c1,ABCB1,"JC-1 efflux, inhibitor",Jurkat-DNR,,,IC50,4.77 ± 0.63 µM
CCOC(=O)c1csc([C@@H](N)C(C)C)n1,ABCB1,"Bodipy-FL-prazosin efflux, flow cytometry",HeLa transduced with BacMam ABCB1,"20 µM, 45 min, 5% FBS",relative to: 1 µM tariquidar,inhibition,< 5%
O=C(c1ccoc1)N1CCN(c2cc(-c3ccco3)nc3cc(-c4ccco4)nn23)CC1,ABCB1,"JC-1 efflux, inhibitor",Jurkat-DNR,,,IC50,1.7 µM
CC1=N[C@]2(C(=O)CO)[C@@H](C[C@H]3[C@@H]4C[C@@H](O)C5=CC(=O)C=C[C@]5(C)[C@H]4[C@@H](O)C[C@@]32C)O1,ABCB1,"transport, inhibitor, vesicular transport",HEK293 inside-out vesicles,,,IC50,19.8 µM
CC(CN(C)C)CN1c2ccccc2CCc2ccccc21 (centres unmarked),ABCB1,transport,MDCK-MDR1,"10 µM, 90 min",relative to: B-A over A-B,efflux ratio,< 2
COc1ccc(-c2cc(N3CCN(C(=O)c4ccoc4)CC3)n3nc(-c4ccccc4)cc3n2)cc1,ABCB1,"JC-1 efflux, inhibitor",Jurkat-DNR,,,IC50,4.55 µM
Cc1cc(Nc2ncnc3ccc(NC4=NC(C)(C)CO4)cc23)ccc1Oc1ccn2ncnc2c1,ABCB1,"substrate, bidirectional transwell permeability",MDCKII cells transfected with ABCB1,"1 µM, 1 h, pH 7.4",relative to: without over with elacridar,net efflux ratio,13.7
Cc1ccc(Nc2nccc(N(C)c3ccc4c(C)n(C)nc4c3)n2)cc1S(N)(=O)=O,ABCB1,bidirectional transport,MDCK-MDR1,"5 µM, 240 min, together with: canertinib 5 µM",,Papp B-A,4.02 ± 0.08 ×10⁻⁶ cm/s
CCOC(=O)c1csc([C@@H](NC(=O)c2csc([C@@H](NC(=O)c3csc([C@@H](NC(=O)c4csc([C@@H](NC(=O)OC(C)(C)C)C(C)C)n4)C(C)C)n3)C(C)C)n2)C(C)C)n1,ABCB1,"calcein-AM efflux, flow cytometry",HeLa transduced with BacMam ABCB1,"10 µM, 10 min, 5% FBS, together with: calcein-AM 0.5 µM",relative to: 1 µM tariquidar,inhibition,59%
COc1cc2c(cc1OC)CN(CCc1ccc(NC(=O)c3cc(OC)c(OC)cc3NC(=O)c3cnc4ccccc4c3)cc1)CC2,ABCB1,rhodamine-123 efflux,human peripheral CD56+ lymphocytes,"490 ng/mL, ex vivo, mean plasma concentration, together with: rhodamine-123 0.2 µg/mL",,inhibition,100%
CCOC(=O)c1csc([C@@H](NC(=O)c2csc([C@@H](NC(=O)OC(C)(C)C)C(C)C)n2)C(C)C)n1,ABCB1,"calcein-AM efflux, flow cytometry",HeLa transduced with BacMam ABCB1,"20 µM, 10 min, 5% FBS, together with: calcein-AM 0.5 µM",relative to: 1 µM tariquidar,inhibition,55%
C[C@H]1O[C@@H](O[C@H]2[C@@H](O)C[C@H](O[C@H]3[C@@H](O)C[C@H](O[C@H]4CC[C@@]5(C)[C@H](CC[C@@H]6[C@@H]5C[C@@H](O)[C@]5(C)[C@@H](C7=CC(=O)OC7)CC[C@]65O)C4)O[C@@H]3C)O[C@@H]2C)C[C@H](O)[C@@H]1O,ABCB1,,LLC-PK1 cells expressing human ABCB1,"3.5 h, together with: zosuquidar 1 µM",apical to basolateral,Papp,4.2 ± 0.23 ×10⁻⁶ cm/s
COc1ccc(-c2cc3nc(-c4ccccc4)cc(N4CCN(C(=O)c5ccoc5)CC4)n3n2)cc1,ABCB1,"JC-1 efflux, inhibitor",Jurkat-DNR,,,IC50,1.44 ± 0.7 µM
CC(C)[C@@H]1NC(=O)c2csc(n2)[C@H](C(C)C)NC(=O)c2csc(n2)[C@H](C(C)C)NC(=O)c2csc1n2,ABCB1,"efflux transport, inhibitor, flow cytometry","HeLa, BacMam P-gp transduced","10 µM, 45 min, together with: Bodipy-FL-prazosin",relative to: 1 µM tariquidar,inhibition,89%
O=C(c1ccoc1)N1CCN(c2cc(-c3ccncc3)nc3cc(-c4cccc(Cl)c4)nn23)CC1,ABCB1,"JC-1 efflux, inhibitor",Jurkat-DNR,,,IC50,3.68 ± 0.35 µM
COc1cccc2c1C(=O)c1c(O)c3c(c(O)c1C2=O)C[C@@](O)(C(=O)CO)C[C@@H]3O[C@H]1C[C@H](N)[C@H](O)[C@H](C)O1,ABCB1,"ATPase activity, substrate",membranes,together with: ATP 1 mM,,Vmax,3.5 ± 0.2 nmol Pi/min/mg protein

# For quick reference, copied from above:
Compound,target,assay,system,setting,scale,endpoint,result
C[C@H]1O[C@@H](O[C@H]2[C@@H](O)C[C@H](O[C@H]3[C@@H](O)C[C@H](O[C@H]4CC[C@@]5(C)[C@H](CC[C@@H]6[C@@H]5C[C@@H](O)[C@]5(C)[C@@H](C7=CC(=O)OC7)CC[C@]65O)C4)O[C@@H]3C)O[C@@H]2C)C[C@H](O)[C@@H]1O,ABCB1,,LLC-PK1 cells expressing human ABCB1,"3.5 h, together with: zosuquidar 1 µM",apical to basolateral,Papp,4.2 ± 0.23 ×10⁻⁶ cm/s
COc1ccc(-c2cc3nc(-c4ccccc4)cc(N4CCN(C(=O)c5ccoc5)CC4)n3n2)cc1,ABCB1,"JC-1 efflux, inhibitor",Jurkat-DNR,,,IC50,1.44 ± 0.7 µM
CC(C)[C@@H]1NC(=O)c2csc(n2)[C@H](C(C)C)NC(=O)c2csc(n2)[C@H](C(C)C)NC(=O)c2csc1n2,ABCB1,"efflux transport, inhibitor, flow cytometry","HeLa, BacMam P-gp transduced","10 µM, 45 min, together with: Bodipy-FL-prazosin",relative to: 1 µM tariquidar,inhibition,89%
